Results pooled from the literature.
Each line is one published result; not all experiments were run side by side. Numbers after ± are the reported error.
Technique: steady-state kinetics
B1: enzyme N249W (Thermobifida fusca, UniProt Q47RK4); chain MTDVYILDAVRTPFGRYGGALSGIRPDDLAAHVLRALAERSPGLDPAAVDDVFFGDANGAGEDNRNVARMAALLAGWPTSVPGVTLNRLCGSGMESVIAANRAIAVGDASLAVAGGVESMSRAPWVLPKPAQGFPTGHETLYSTTLGWRMVNPAMPEQWTVSLGESTEQVAATYGISRAEQDAFALRSHERAARAWAEGVFDAEITQIPGAELERDESIRETSAEKLAALKPAFRPDGTITAGNASPLWDGAAALLIGDAAAAERVGREPLARIVSRGVAAVDPDVFGIGPVQAAEIALRRAGIGWDDLSVVELNEAFAAQSLACLKLWPDLDPEIVNPNGGAIAIGHPLGASGARIVGTLAHELHRRGGGWGLAAICIGVGQGLAVVLHR
B2: xoxF1 (Methylorubrum extorquens, UniProt C5B120); chain NESVLKGVANPAEQVLQTVDYANTRYSKLDQINASNVKNLQVAWTFSTGVLRGHEGSPLVVGNIMYVHTPFPNIVYALDLDQGAKIVWKYEPKQDPSVIPVMCCDTVNRGLAYADGAILLHQADTTLVSLDAKSGKVNWSVKNGDPSKGETNTATVLPVKDKVIVGISGGEFGVQCHVTAYDLKSGKKVWRGYSIGPDDQLIVDPEKTTSLGKPIGKDSSLKTWEGDQWKTGGGCTWGWFSYDPKLDLMYYGSGNPSTWNPKQRPGDNKWSMTIWARNPDTGMAKWVYQMTPHDEWDFDGINEMILTDQKFDGKDRPLLTHFDRNGFGYTLDRATGEVLVAEKFDPVVNWATKVDLDKGSKTYGRPLVVSKYSTEQNGEDVNSKGICPAALGTKDQQPAAFSPKTGLFYVPTNHVCMDYEPFRVTYTPGQPYVGATLSMYPAPGSHGGMGNFIAWDNLQGKIKWSNPEQFSAWGGALATAGDVVFYGTLEGFLKAVDSKTGKELYKFKTPSGIIGNVMTYEHKGKQHVAVLSGVGGWAGIGLAAGLTDPNAGLGAVGGYAALSSYTNLGGQLTVFSLPNN
B3: protein A329L (Streptomyces toyocaensis, UniProt Q8KLK7); chain MTTVLPPLEDTDGLWAALTEAAASVEKLLATLPEHGARSSAERAEIAAAHDAARALRVRFLDTHADAVYDRLTDHRRVHLRLAELVEAAATAFPGLVPTQQQLAVERSLPQAAKEGHEIDQGIFLRAVLRSPLAGPHLLDAMLRPTPRALELLPEFVRTGEVEMEAVHLERRDGVARLTMCRDDRLNAEDGQQVDDMETAVDLALLDPGVRVGLLRGGVMSHPRYRGKRVFSAGINLKYLSQGGISLVDFLMRRELGYIHKLVRGVLTNDDRPGWWHSPRIEKPWVAAVDGFAIGGGAQLLLVFDRVLASSDAYFSLPAAKEGIIPGALNLRLGRFAGPRVSRQVILEGRRIWAKEPEARLLVDEVVEPDELDAAIERSLTRLDGDAVLANRRMLNLADESPDGFRAYMAEFALMQALRLYGHDVIDKVGRFGGRPPA
B4: enzyme (Vibrio cholerae, UniProt Q9KKP2); chain MNQSSLLAEFGDPITRVENALQALREGRGVLLLDDEDRENEGDIIYAVESLTTAQMALMIRECSGIVCLCLTEAQADRLALPPMVVNNNSANQTAFTVSIEAKHGVTTGVSAQDRVTTIKTAANPQAKPEDLARPGHVFPLRARAGGVLARRGHTEGTVDLMQMAGLQPAGVLCELTNPDGSMAKTPEIIEFGKLHNMPVLTIEDMVQYRIQFDLKLA
B5: enzyme H189D (Acetivibrio thermocellus, UniProt A3DJ38); chain MKLTIPELSLVVLIGSSGSGKSTFAKKHFKPTEVISSDFCRGLVSDDENDQTVTGAAFDVLHYIVSKRLQLGKLTVVDATNVQESARKPLIEIAKDYHCFPVAVVFNLPEKVCQERNKNRTDRQVEEYVIRKHTQQLKKSIKGLQREGFRYVYILNSPEEVEEVVFERQPLWNNKKDEHGPFDIIGDIDGCYDELKMLLEKLGYLIEEVEGGVGSGKYRVTHPEGRKVLFLGDLVDRGPKITEVLKLVMGMVKSGIALCVPGNHDVKLLRKLNGRDVQITHGLDRTLEQLAKEPQEFIEEVKAFIDGLVSHYVLDDGKLVVAHAGMKEEFQGRGSGKVREFALYGETTGETDEYGLPVRYDWASDYRGKALVVYGHTPQAEVLKVNNTINIDTGCVFGGKLTAYRYPEREIVDVKALKTYYEPAKPFLPKEDMAERFEARTDNDILDINDVLGKKIITTRLMSSITIHEENSIAALEVMSRFAADPHWLIYLPPTMSPCETSKKEGMLEHPIEAFEYFRTRGVGKVVCEQKHMGSRAVVIVCKDSQVAEKRFGVLDGTAGICYTRTGRHFFDDMQLEAELIDRVRKVLDKSGFWGDFNTDWVCLDCELMPWSAKAQKLLEEQYSAVGISGRVVLDEAVKLLKQASLNKTVSFDVSRQTSGKNADINELLQRFTERSEMMQKYVEAYRKYCWPVNSIDDLKLAPFHILATEGKVHSDKNHIWHMDTIAKYCTQDDSLIMATNHILVDVTDAESVDKGIKWWEDLTASGGEGMVVKPYDFIVKNGRELLQPAVKCRGREYLRIIYGPEYTMDENIERLRNRAVGKKRSLALREFSLGMEALERFVRNEPLYRVHECVFGVLALESEPVDPRL
B6: UGT84B1 (Arabidopsis thaliana, UniProt O22182); chain MGSSEGQETHVLMVTLPFQGHINPMLKLAKHLSLSSKNLHINLATIESARDLLSTVEKPRYPVDLVFFSDGLPKEDPKAPETLLKSLNKVGAMNLSKIIEEKRYSCIISSPFTPWVPAVAASHNISCAILWIQACGAYSVYYRYYMKTNSFPDLEDLNQTVELPALPLLEVRDLPSFMLPSGGAHFYNLMAEFADCLRYVKWVLVNSFYELESEIIESMADLKPVIPIGPLVSPFLLGDGEEETLDGKNLDFCKSDDCCMEWLDKQARSSVVYISFGSMLETLENQVETIAKALKNRGLPFLWVIRPKEKAQNVAVLQEMVKEGQGVVLEWSPQEKILSHEAISCFVTHCGWNSTMETVVAGVPVVAYPSWTDQPIDARLLVDVFGIGVRMRNDSVDGELKVEEVERCIEAVTEGPAAVDIRRRAAELKRVARLALAPGGSSTRNLDLFISDITIA
Chain of UniProt P45370 (whole entry, looked up): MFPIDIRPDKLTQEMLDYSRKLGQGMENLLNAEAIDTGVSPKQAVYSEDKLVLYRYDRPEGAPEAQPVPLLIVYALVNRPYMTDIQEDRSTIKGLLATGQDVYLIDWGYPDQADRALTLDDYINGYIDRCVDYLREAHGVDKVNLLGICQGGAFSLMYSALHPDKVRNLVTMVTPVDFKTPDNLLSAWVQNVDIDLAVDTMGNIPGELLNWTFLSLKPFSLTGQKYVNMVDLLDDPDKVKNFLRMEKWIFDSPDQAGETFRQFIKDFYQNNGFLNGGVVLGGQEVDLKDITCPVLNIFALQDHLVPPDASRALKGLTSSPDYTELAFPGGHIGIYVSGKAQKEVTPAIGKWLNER
Chain of UniProt Q9JLT4 (whole entry, looked up): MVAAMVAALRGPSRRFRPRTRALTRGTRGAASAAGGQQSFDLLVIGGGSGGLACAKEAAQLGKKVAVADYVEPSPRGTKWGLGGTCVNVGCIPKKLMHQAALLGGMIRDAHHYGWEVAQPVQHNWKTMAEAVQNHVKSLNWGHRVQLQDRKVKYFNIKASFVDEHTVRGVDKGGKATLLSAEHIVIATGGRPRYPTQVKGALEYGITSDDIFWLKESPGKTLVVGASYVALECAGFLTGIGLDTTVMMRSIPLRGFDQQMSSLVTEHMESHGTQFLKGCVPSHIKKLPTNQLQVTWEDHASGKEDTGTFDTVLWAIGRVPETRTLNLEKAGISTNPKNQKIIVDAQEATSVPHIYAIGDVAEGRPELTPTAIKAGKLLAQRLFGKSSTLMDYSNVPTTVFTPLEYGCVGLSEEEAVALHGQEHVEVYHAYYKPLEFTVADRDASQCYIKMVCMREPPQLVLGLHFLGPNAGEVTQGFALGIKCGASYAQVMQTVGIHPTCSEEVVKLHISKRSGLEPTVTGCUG

`B1 (enzyme N249W)` has a kcat of 0.00333 ± 0.000333 s⁻¹ (CC(C)(COP(=O)(O)OP(=O)(O)OC[C@H]1O[C@@H](n2cnc3c(N)ncnc32)[C@H](O)[C@@H]1OP(=O)(O)O)[C@@H](O)C(=O)NCCC(=O)NCCSC(=O)CCCC(=O)O; pH 7.4, 37 °C).
With `B2 (xoxF1)` the kcat was 4 ± 0.2 s⁻¹ (CO; 30 °C).
With `B3 (protein A329L)` the kcat was 0.017 ± 0.001 s⁻¹ (CC(C)(COP(=O)(O)OP(=O)(O)OC[C@H]1O[C@@H](n2cnc3c(N)ncnc32)[C@H](O)[C@@H]1OP(=O)(O)O)[C@@H](O)C(=O)NCCC(=O)NCCSC(=O)Cc1cc(O)cc(O)c1; pH 7.5, 24 °C, added: O2).
The kcat of `enzyme (Allochromatium vinosum, UniProt P45370)` is reported as 20 s⁻¹ (CC(C)(COP(=O)(O)OP(=O)(O)OC[C@H]1O[C@@H](n2cnc3c(N)ncnc32)[C@H](O)[C@@H]1OP(=O)(O)O)[C@@H](O)C(=O)NCCC(=O)NCCSC(=O)C[C@H](O)CN=[N+]=[N-]; pH 7.8, 30 °C).
For `protein (Rhodopseudomonas palustris, UniProt Q6N3R9)`, the kcat was 0.167 s⁻¹ (CCCCCCCCOC(C)=O; pH 8.3, NaCl 150 mM, no saturation, added: CaCl2 1 mM).
With `B4 (enzyme)` the kcat was 0.0367 ± 0.00333 s⁻¹ (O=C(CO)[C@H](O)[C@H](O)COP(=O)(O)O; pH 7.5).
The kcat of `B5 (enzyme H189D)` is reported as 34.3 ± 8 s⁻¹ (Nc1ncnc2c1ncn2[C@@H]1O[C@H](CO)[C@H]2OP(=O)(O)O[C@H]21; pH 7.5, 45 °C).
`B6 (UGT84B1)` gave a kcat of 0.0147 ± 0.000833 s⁻¹ (O=C(O)Cc1ccccc1; pH 7.5, 30 °C).
`enzyme (Mus musculus, UniProt Q9JLT4)` gave a kcat of 2.68 ± 0.283 s⁻¹ (N#C[Se]O).
`gliT (Aspergillus fumigatus, UniProt E9RAH5)` has a kcat of 52.8 ± 12.4 s⁻¹ (CC(=O)NC1=C(S)/C(=C\S)NC1=O; pH 6.5).

Some of these lines once more:
The kcat of `B5 (enzyme H189D)` is reported as 34.3 ± 8 s⁻¹ (Nc1ncnc2c1ncn2[C@@H]1O[C@H](CO)[C@H]2OP(=O)(O)O[C@H]21; pH 7.5, 45 °C).
